Measurements collected from several papers.
A part holds a random share of what one study measured. Substitutions count along the parent as printed.

Block 1 — method: protein binding microarray; molecule type: double-stranded DNA, one strand shown; medium: in vitro; concentration: not given; baseline: not given; direction: higher = stronger binding
Target: Histone acetyltransferase KAT6A, winged helix 1, GST fusion (KAT6A, Homo sapiens, UniProt Q92794, residues 1-85)
Notes: 8-mer, flanks averaged, mean of 2 arrays, mostly near background
Construct (chain): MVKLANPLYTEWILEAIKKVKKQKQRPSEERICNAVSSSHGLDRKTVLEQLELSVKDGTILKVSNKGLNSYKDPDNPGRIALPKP
`CGGGGGTC` has an E-score of 0.259.
For `ACGACCGC`, the E-score was 0.311.
`ATAGCAGA` has an E-score of -0.261.
The E-score of `ATACCGTC` is reported as 0.316.
`TACGCCCA` has an E-score of -0.0616.
For `CGCGGAGC`, the E-score was 0.357.
The E-score of `GGTATTGA` is reported as -0.0337.
`AAACCTGA` has an E-score of -0.0779.
With `CACCCAGC` the E-score was -0.0378.
`ACAAGTAT` has an E-score of -0.12.
The E-score of `AGTTATAG` is reported as -0.153.
`CGCCAAGC` gave an E-score of 0.279.
`ATTAGGGA` has an E-score of -0.123.
`AGGCATGC` has an E-score of -0.0131.
`CGAGAATA` has an E-score of -0.13.
For `ACCTAATA`, the E-score was -0.0278.
`CTTTATCA` gave an E-score of -0.268.
`CCATTTCC` has an E-score of -0.028.
`GAACCACA` has an E-score of -0.165.
For `ACTCAATG`, the E-score was -0.111.
`CGAACGGA` gave an E-score of 0.208.
With `CGCGTGCC` the E-score was 0.351.
The E-score of `ACTGCGAC` is reported as 0.158.
With `CACCTAAA` the E-score was -0.221.
With `ATGGAGAA` the E-score was -0.0191.

Block 2 — target: CCNA2, cyclin fold, Cln2 fusion (human); method: yeast growth competition, sequencing; medium: yeast; notes: strong parent motif; baseline: not given; direction: higher = stronger binding
Starting sequence: WEE1 docking peptide (human); HKTFRKLRLFDTP
`R8A` — result for “normalised enrichment score”: 1.24.
Under “normalised enrichment score”, `T3A` is recorded as 1.26.
For `L9S`, “normalised enrichment score” read 1.34.
Under “normalised enrichment score”, `K6C` is recorded as 1.14.
`R5T`: “normalised enrichment score” 1.37.
`H1V` — result for “normalised enrichment score”: 1.87.
`K6A`: “normalised enrichment score” 1.31.
For `F10Y`, “normalised enrichment score” read 0.164.
For `T12K`, “normalised enrichment score” read 1.6.
For `H1D`, “normalised enrichment score” read 1.53.
Under “normalised enrichment score”, `R5Y` is recorded as 0.333.
Under “normalised enrichment score”, `K2G` is recorded as 1.89.
`F4P` — result for “normalised enrichment score”: 1.31.
Under “normalised enrichment score”, `P13D` is recorded as 1.53.
Under “normalised enrichment score”, `H1F` is recorded as 1.18.
For `R5A`, “normalised enrichment score” read -0.846.
For `T12H`, “normalised enrichment score” read 1.76.
`K6Q` — result for “normalised enrichment score”: 1.27.
`F4K`: “normalised enrichment score” 1.69.
`L7H` — result for “normalised enrichment score”: 0.562.
`F10T`: “normalised enrichment score” 1.11.
`F4Q` — result for “normalised enrichment score”: 0.813.
For `R5H`, “normalised enrichment score” read 2.21.
Under “normalised enrichment score”, `L9M` is recorded as 1.15.
Under “normalised enrichment score”, `K2Q` is recorded as 1.43.

Block 3 — method: RNA Bind-n-Seq; molecule type: RNA; medium: in vitro; concentration: 365 nM; baseline: no-protein control; direction: higher = stronger binding
Target: RNA binding protein fox-1 homolog 2, RRM domain, GST-SBP tag (RBFOX2, Homo sapiens, UniProt O43251-10, residues 100-194)
Notes: natural RNA segment, single round, ends assumed
Construct (chain): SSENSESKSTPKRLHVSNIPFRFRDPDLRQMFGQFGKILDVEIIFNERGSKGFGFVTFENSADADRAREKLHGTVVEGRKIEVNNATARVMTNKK
Under “RBNS enrichment (R)”, `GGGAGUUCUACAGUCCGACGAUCCGUUCAUAUUCUCAGGCCGCAAGUGCAAUGCCUGAGGGGAUCAGGCUUUUCUACUCCAGGCAAACCUGCCCCAUCUUGUCGCUUUUAGGACCUCCCACAACCUGGUUCCCUGGAAUUCUCGGGUGCCAA` is recorded as 0.275.
For `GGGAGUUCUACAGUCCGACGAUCUUAUUCCUCUUUGCCUUCUCAAUGUUAAUUUAUUGCAUGGUUUACUCCUUUUCUUUACAGCCGAAAUUGCUUUAAGUGAUGGUUAAAUUGACAAAUUAAGAUGUUAAUUUUGGAAUUCUCGGGUGCCAA`, “RBNS enrichment (R)” read 1.41.
`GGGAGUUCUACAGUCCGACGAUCUUACUGAACAUGUCCGCAUCAACCCUCUGAGAAUAACUUGGUCACUUUAUGAAGGGGCGUUUUUAAGUUGUUUAGCAGUGACAUUUAAUAUGGUCCAAUUGCUUUUCUUUUGGAAUUCUCGGGUGCCAA`: “RBNS enrichment (R)” 0.514.
`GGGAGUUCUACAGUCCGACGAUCGGACAAGAACACUUGAACACACAGAACGGAGACUAUGCCUAGUGUAGGUUUUGCAGUUAAUGGCCUGAAUGCUAGAUAUCAGAUCACCUGUUUCGCUGUGGGAACAGGAGUGGAAUUCUCGGGUGCCAA`: “RBNS enrichment (R)” 0.728.
For `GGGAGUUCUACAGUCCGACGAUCCUGUGUUUUUUCAUCUUGUUUAGGAAUGUUUUGAGAUUAAUGUGCUUAAAAGUCCUACGUGACUGAUUUUAAACAUUGUGAUAAAAUUAAUUUUCAGUAGAAUAGUUGAAUGGAAUUCUCGGGUGCCAA`, “RBNS enrichment (R)” read 0.572.
For `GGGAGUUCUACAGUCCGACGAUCAAUAGCAUUGUUGGAAUUUAUUCCCUUCUGUUUUAAAGGAGGUAUUUUGGAAAUUGAAAAACUUAAUUUACAAGUGCUGGUACAUCUUUUUUCUUUUGUGGACCACAGGAUGGAAUUCUCGGGUGCCAA`, “RBNS enrichment (R)” read 0.518.
Under “RBNS enrichment (R)”, `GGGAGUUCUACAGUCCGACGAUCUUAUUACUAUUAGGUAUGUGAGCUUGGGCAAAUCGCUUAAUCUUUGAGUCUAGUUUUCUCUCAAAAUGAGAACAUUAGGCUAAAUGAUUUCCGAGUUUCCAGCUAGUCCUUGGAAUUCUCGGGUGCCAA` is recorded as 0.46.
For `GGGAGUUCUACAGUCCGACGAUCACAUCGAUACGAGACCUCUGAAUUUGUAUUUUUUCUUGUUAACCAUUUUAAUUUGUUGGCUGGAUGUAUAAAGAUGUUUAAAAAAUUCAGUUGCUUUUUGGGGUAAUUUGUGGAAUUCUCGGGUGCCAA`, “RBNS enrichment (R)” read 0.574.
For `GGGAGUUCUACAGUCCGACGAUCCAGGAGAGGCCCAGGCCACCAUGGGCUUUGAGUCAUCCAAACAGCUCUACUGCUGUCCUACAAUACAUGAGGUGACUUCCGGCCAUGCUGCCCACUGUUGGCGGCUCUGUUGGAAUUCUCGGGUGCCAA`, “RBNS enrichment (R)” read 0.232.
For `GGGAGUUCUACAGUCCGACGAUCUAAGCUAUGGGCUUGAAGAUGUUCUUAUAUUUCAGUGACAAUGGACACCUUAGCUUCUUAUGAGGAACUUGAGUUCCCUCCGCCUUGGACAGGGCUGCAGGGCCACGCUGUGGAAUUCUCGGGUGCCAA`, “RBNS enrichment (R)” read 0.543.
For `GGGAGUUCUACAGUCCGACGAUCUUAAAACAGCUUUGCUUGUAUUGUGAAGAUUUAAAAACAAACUUGAGAUUUUUAACGUAACUAUUAACACAGUUUUAACAUAAGUUAUCCCACUGGGUUUAAGAGCAUCUUGGAAUUCUCGGGUGCCAA`, “RBNS enrichment (R)” read 0.716.
Under “RBNS enrichment (R)”, `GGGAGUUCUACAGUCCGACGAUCGUGCGGGGCAGAGGCCCUUCUCUGCGCCAAAUGUCUGACUACACAGUAUACACAGGACAUUGUUGCUGCCGCCACCGAGACUGGUUUUCUGUCCCUGAGAACAUGACGUUUGGAAUUCUCGGGUGCCAA` is recorded as 0.618.

Block 4 — method: protein-binding microarray; molecule type: double-stranded DNA, one strand shown; medium: in vitro; concentration: 940 nM top; notes: 60-bp whole probe; with: salmon DNA 0.4 mg/ml; baseline: random background probes; direction: higher = stronger binding; shared flanks, not repeated: GCCTAGCAC … GTCTTGATTCGCTTGACGCTGCTG
Target: Interferon regulatory factor 5, full length, phosphomimetic (IRF5, Homo sapiens, UniProt Q13568-2, residues 1-514, S451D/S453D/S456D/S462D)
Under “fitted relative affinity”, `TTAGGTATCGGGACGGGGTTAGTGCTA` is recorded as 6.13 z-score.
For `TACGGACTGGGTCTCGGGACGTGCTAG`, “fitted relative affinity” read -0.277 z-score.
`TTAGATATCAGTCTCCATTAGTGCTAG` — result for “fitted relative affinity”: 0.425 z-score.
`ATGCTGGTCACTCTCTGGGCGTGCTAG`: “fitted relative affinity” -0.455 z-score.
`TTAGATTTCGGGTAGCGATTAGTGCTA`: “fitted relative affinity” 1.12 z-score.
`ACAGCTCTGCGGTTCAGATAGTGCTAG`: “fitted relative affinity” -0.352 z-score.
For `GACGGTCTCCTTTGCCTGACGTGCTAG`, “fitted relative affinity” read 0.268 z-score.
Under “fitted relative affinity”, `TCTCATTCCAATTCTTTTTATGTGCTA` is recorded as 7 z-score.
`TTAGGTCTCCATATCCTTTAGTGCTAG`: “fitted relative affinity” 0.621 z-score.
Under “fitted relative affinity”, `ACATGCTTCGAGATCTCCGAGTGCTAG` is recorded as -0.23 z-score.
For `TTCCCTCCCTAATTCTGATTGTGCTAG`, “fitted relative affinity” read 0.983 z-score.
Under “fitted relative affinity”, `GACGATTTCGGGGCTGGAGACGTGCTA` is recorded as 0.347 z-score.
For `GGTACAAACTTGTAATTATAGTGCTAG`, “fitted relative affinity” read -0.525 z-score.
`GACGATATCAGTCACGAGACGTGCTAG` — result for “fitted relative affinity”: -0.116 z-score.
Under “fitted relative affinity”, `TTAGGTATCGGTTTCGGTCAGTGCTAG` is recorded as 12.9 z-score.
Under “fitted relative affinity”, `TCATCTTTCTGTCAGTTACTGTGCTAG` is recorded as 1.7 z-score.
For `TGGGCTGTGGGTTTGAGTCTGTGCTAG`, “fitted relative affinity” read 0.0706 z-score.
Under “fitted relative affinity”, `TTAGGTATCGCCACTGGGTTAGTGCTA` is recorded as 2.46 z-score.
Under “fitted relative affinity”, `TTCGGTTCCGGTTTCGGTTAGTGCTAG` is recorded as 10.2 z-score.
Under “fitted relative affinity”, `GACGATTTCAGTATGGAGACGTGCTAG` is recorded as -0.0539 z-score.
`GGCGGTATCGACTATCGGGACGTGCTA`: “fitted relative affinity” 5.01 z-score.
`GGAGGGGGGCGGGGCGGTGGGTGCTAG` — result for “fitted relative affinity”: 4.26 z-score.
`GACGATTTCAGTTTCGAGAGGTGCTAG` — result for “fitted relative affinity”: 4.44 z-score.
`TCTCTGTTCTTTTCAGTCCCGTGCTAG`: “fitted relative affinity” 6.32 z-score.

Excerpt of the above (block 4):
`ATGCTGGTCACTCTCTGGGCGTGCTAG`: “fitted relative affinity” -0.455 z-score.
Under “fitted relative affinity”, `GACGATTTCGGGGCTGGAGACGTGCTA` is recorded as 0.347 z-score.
Under “fitted relative affinity”, `TTAGGTATCGGGACGGGGTTAGTGCTA` is recorded as 6.13 z-score.
`TTAGATTTCGGGTAGCGATTAGTGCTA`: “fitted relative affinity” 1.12 z-score.
`TTAGATATCAGTCTCCATTAGTGCTAG` — result for “fitted relative affinity”: 0.425 z-score.
For `TGGGCTGTGGGTTTGAGTCTGTGCTAG`, “fitted relative affinity” read 0.0706 z-score.
Under “fitted relative affinity”, `TTAGGTATCGGTTTCGGTCAGTGCTAG` is recorded as 12.9 z-score.
Under “fitted relative affinity”, `TCATCTTTCTGTCAGTTACTGTGCTAG` is recorded as 1.7 z-score.
`TCTCTGTTCTTTTCAGTCCCGTGCTAG`: “fitted relative affinity” 6.32 z-score.
`TTAGGTCTCCATATCCTTTAGTGCTAG`: “fitted relative affinity” 0.621 z-score.
For `TTCCCTCCCTAATTCTGATTGTGCTAG`, “fitted relative affinity” read 0.983 z-score.
Under “fitted relative affinity”, `TTCGGTTCCGGTTTCGGTTAGTGCTAG` is recorded as 10.2 z-score.
Under “fitted relative affinity”, `TCTCATTCCAATTCTTTTTATGTGCTA` is recorded as 7 z-score.
`GGCGGTATCGACTATCGGGACGTGCTA`: “fitted relative affinity” 5.01 z-score.
